Results collected from several papers.
Parts stem from different laboratories: compare values within a part only. Several values in a cell are separate wells, animals, samples, runs or records.
Chain of UniProt P10721 (whole entry, unmodified, looked up): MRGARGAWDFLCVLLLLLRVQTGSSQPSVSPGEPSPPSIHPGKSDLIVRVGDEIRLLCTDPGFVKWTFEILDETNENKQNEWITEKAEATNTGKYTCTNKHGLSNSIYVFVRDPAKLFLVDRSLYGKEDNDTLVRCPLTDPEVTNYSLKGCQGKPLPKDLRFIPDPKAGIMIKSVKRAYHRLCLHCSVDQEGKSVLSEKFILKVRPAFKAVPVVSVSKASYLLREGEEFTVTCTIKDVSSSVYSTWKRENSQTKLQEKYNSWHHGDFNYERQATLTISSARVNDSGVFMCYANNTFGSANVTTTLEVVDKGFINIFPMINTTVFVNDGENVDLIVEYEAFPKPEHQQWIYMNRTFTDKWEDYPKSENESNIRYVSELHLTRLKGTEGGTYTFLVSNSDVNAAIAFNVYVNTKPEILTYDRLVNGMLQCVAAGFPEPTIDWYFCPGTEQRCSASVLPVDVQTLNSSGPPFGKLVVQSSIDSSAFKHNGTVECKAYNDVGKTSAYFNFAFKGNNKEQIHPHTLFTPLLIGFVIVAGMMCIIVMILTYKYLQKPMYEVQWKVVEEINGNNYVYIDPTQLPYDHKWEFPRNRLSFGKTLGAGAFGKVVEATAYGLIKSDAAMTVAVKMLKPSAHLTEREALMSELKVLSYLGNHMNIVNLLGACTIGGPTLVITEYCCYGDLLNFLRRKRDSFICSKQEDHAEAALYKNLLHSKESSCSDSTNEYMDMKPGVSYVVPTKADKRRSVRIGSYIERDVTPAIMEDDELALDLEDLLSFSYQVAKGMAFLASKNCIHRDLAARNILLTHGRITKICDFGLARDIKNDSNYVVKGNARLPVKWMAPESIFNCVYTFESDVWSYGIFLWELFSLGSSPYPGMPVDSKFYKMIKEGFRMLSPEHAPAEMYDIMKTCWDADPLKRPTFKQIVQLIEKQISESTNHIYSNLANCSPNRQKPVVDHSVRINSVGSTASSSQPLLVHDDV
Chain of UniProt Q86Z02 (whole entry, looked up): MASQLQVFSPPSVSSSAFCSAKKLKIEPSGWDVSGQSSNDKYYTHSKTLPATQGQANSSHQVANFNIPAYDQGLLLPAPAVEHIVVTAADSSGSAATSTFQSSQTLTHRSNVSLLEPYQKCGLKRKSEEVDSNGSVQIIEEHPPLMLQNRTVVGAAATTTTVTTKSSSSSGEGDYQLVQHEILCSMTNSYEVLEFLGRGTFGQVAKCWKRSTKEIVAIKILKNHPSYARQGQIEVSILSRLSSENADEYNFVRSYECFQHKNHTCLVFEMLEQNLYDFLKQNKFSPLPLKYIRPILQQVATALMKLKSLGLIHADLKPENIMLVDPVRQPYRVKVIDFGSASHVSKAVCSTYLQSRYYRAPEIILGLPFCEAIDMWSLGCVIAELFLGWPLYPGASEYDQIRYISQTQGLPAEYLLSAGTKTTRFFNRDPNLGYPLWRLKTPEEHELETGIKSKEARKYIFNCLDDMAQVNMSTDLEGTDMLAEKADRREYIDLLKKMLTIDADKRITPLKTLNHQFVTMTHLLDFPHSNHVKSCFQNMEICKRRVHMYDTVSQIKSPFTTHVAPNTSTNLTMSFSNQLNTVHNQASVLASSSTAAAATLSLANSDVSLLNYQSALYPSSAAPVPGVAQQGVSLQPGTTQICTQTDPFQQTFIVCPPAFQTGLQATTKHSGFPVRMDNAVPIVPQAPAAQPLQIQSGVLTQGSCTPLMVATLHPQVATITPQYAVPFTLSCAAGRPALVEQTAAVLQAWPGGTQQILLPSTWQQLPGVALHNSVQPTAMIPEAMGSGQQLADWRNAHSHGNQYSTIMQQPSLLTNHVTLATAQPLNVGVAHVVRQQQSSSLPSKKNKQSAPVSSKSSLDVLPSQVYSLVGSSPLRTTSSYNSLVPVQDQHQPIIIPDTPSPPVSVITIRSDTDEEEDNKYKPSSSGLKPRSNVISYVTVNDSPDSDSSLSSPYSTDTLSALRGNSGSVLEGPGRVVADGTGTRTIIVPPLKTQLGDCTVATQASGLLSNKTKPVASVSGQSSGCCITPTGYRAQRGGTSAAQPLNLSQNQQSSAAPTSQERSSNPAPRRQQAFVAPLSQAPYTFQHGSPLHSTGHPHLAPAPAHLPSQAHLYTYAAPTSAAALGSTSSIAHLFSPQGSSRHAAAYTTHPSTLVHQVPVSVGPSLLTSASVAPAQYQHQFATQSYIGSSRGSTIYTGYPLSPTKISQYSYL
Chain of UniProt Q13976 (whole entry, looked up): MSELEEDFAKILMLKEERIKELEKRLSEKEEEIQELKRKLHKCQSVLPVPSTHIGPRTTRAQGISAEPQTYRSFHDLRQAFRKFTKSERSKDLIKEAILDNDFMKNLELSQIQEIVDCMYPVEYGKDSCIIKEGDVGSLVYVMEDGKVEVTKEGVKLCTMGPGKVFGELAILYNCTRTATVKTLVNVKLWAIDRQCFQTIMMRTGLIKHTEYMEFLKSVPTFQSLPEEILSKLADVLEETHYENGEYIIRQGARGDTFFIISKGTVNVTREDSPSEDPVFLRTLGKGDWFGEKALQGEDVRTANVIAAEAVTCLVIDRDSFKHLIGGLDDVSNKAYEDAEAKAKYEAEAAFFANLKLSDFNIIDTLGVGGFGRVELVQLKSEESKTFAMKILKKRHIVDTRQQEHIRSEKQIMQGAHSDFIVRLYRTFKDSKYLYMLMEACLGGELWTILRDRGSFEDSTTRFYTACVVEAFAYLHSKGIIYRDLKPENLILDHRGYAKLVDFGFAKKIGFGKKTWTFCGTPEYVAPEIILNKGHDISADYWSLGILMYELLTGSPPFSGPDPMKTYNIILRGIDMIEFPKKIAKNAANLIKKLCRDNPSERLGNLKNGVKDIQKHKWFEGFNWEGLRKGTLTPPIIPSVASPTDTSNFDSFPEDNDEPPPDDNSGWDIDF
Chain of UniProt P68400 (whole entry, looked up): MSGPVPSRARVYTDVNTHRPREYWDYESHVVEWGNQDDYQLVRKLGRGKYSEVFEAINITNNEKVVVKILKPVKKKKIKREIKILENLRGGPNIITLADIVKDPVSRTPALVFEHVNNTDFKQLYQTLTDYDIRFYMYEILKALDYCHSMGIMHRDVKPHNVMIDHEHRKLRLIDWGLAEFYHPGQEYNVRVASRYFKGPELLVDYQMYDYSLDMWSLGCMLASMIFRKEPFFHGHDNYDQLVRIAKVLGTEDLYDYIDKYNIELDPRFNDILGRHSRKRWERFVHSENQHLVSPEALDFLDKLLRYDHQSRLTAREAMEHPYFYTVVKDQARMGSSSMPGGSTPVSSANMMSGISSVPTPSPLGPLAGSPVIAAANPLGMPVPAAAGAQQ
Chain of UniProt P49759 (whole entry, looked up): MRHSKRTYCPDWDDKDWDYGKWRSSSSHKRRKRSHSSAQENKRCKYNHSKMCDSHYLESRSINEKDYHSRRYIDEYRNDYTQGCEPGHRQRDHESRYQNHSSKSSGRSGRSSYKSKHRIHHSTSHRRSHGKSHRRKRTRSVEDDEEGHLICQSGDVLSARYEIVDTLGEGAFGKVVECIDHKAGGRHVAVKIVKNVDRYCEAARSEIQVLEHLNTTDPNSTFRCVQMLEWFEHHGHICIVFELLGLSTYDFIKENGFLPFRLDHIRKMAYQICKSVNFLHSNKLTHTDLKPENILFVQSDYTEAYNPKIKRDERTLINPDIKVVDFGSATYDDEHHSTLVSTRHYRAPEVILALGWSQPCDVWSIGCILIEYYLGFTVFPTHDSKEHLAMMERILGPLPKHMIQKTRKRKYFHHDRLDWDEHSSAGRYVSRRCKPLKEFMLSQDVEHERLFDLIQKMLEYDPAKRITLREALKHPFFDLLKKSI
Chain of UniProt P21802 (whole entry, looked up): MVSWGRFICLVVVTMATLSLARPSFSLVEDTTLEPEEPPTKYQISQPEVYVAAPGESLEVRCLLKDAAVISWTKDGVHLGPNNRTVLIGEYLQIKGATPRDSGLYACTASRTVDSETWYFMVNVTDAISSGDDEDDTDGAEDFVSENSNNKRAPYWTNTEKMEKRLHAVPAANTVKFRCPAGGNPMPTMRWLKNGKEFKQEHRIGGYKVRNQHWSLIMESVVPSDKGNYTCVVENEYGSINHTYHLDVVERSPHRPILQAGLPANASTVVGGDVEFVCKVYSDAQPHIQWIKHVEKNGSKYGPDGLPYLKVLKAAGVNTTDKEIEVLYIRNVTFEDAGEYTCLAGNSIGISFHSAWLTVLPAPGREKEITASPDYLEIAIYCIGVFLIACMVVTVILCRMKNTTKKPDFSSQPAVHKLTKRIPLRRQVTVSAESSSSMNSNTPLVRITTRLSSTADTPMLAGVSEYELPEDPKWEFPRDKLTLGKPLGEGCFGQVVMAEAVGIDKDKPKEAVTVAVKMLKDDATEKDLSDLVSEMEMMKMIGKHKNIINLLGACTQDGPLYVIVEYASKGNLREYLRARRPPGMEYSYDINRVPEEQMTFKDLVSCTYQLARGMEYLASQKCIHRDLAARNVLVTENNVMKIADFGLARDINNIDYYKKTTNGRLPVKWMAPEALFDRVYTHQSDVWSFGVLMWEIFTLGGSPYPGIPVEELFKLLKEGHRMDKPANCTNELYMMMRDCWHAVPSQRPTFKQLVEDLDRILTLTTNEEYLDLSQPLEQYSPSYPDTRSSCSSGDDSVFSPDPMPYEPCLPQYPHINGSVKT

Study 1 — Structure (SMILES): CCC(=N\O)/C(C)=C/c1ccc(F)cc1; effect on: cell-free assay; technique: competition with immobilised ligand; concentration: 1 µM
target	remaining binding [%]
Tyrosine-protein kinase ABL1, phosphorylated (ABL1, Homo sapiens, UniProt P00519, Q252H)	69
1-phosphatidylinositol 3-phosphate 5-kinase (PIKFYVE, Homo sapiens, UniProt Q9Y2I7)	92
Serine/threonine-protein kinase 3 (STK3, Homo sapiens, UniProt Q13188)	100
Tyrosine-protein kinase ABL1, non-phosphorylated (ABL1, Homo sapiens, UniProt P00519)	83
Serine/threonine-protein kinase 4 (STK4, Homo sapiens, UniProt Q13043)	78
Serine/threonine-protein kinase LATS2 (LATS2, Homo sapiens, UniProt Q9NRM7)	100
Citron Rho-interacting kinase (CIT, Homo sapiens, UniProt O14578)	70
Dual specificity protein kinase CLK1 (CLK1, Homo sapiens, UniProt P49759)	79
Mitogen-activated protein kinase kinase kinase kinase 5 (MAP4K5, Homo sapiens, UniProt Q9Y4K4)	80
Dual specificity tyrosine-phosphorylation-regulated kinase 1A (DYRK1A, Homo sapiens, UniProt Q13627)	91
Mast/stem cell growth factor receptor Kit (KIT, Homo sapiens, UniProt P10721, D816V)	87
Fibroblast growth factor receptor 2 (FGFR2, Homo sapiens, UniProt P21802)	93
Homeodomain-interacting protein kinase 1 (HIPK1, Homo sapiens, UniProt Q86Z02)	80
Phosphatidylinositol 4,5-bisphosphate 3-kinase catalytic subunit delta isoform (PIK3CD, Homo sapiens, UniProt O00329)	72
Receptor-interacting serine/threonine-protein kinase 1 (RIPK1, Homo sapiens, UniProt Q13546)	82
Serine/threonine-protein kinase Nek10 (NEK10, Homo sapiens, UniProt Q6ZWH5)	95
Ribosomal protein S6 kinase alpha-3, N-terminal kinase domain (RPS6KA3, Homo sapiens, UniProt P51812)	81
RAF proto-oncogene serine/threonine-protein kinase (RAF1, Homo sapiens, UniProt P04049)	91
cGMP-dependent protein kinase 1 (PRKG1, Homo sapiens, UniProt Q13976)	100
Epidermal growth factor receptor (EGFR, Homo sapiens, UniProt P00533, L861Q)	60
Mast/stem cell growth factor receptor Kit (KIT, Homo sapiens, UniProt P10721, V559D/V654A)	73
Ribosomal protein S6 kinase alpha-4, C-terminal kinase domain (RPS6KA4, Homo sapiens, UniProt O75676)	81
BDNF/NT-3 growth factors receptor (NTRK2, Homo sapiens, UniProt Q16620)	66
Myosin light chain kinase, smooth muscle (MYLK, Homo sapiens, UniProt Q15746)	100
Mast/stem cell growth factor receptor Kit (KIT, Homo sapiens, UniProt P10721, L576P)	100

Study 2 — effect on: enzyme activity; mode: inhibitor; concentration: 0.5 µM; relative to: control
Target: Mitogen-activated protein kinase 8 (MAPK8, Homo sapiens, UniProt P45983)
Chain of UniProt P45983 (whole entry, looked up): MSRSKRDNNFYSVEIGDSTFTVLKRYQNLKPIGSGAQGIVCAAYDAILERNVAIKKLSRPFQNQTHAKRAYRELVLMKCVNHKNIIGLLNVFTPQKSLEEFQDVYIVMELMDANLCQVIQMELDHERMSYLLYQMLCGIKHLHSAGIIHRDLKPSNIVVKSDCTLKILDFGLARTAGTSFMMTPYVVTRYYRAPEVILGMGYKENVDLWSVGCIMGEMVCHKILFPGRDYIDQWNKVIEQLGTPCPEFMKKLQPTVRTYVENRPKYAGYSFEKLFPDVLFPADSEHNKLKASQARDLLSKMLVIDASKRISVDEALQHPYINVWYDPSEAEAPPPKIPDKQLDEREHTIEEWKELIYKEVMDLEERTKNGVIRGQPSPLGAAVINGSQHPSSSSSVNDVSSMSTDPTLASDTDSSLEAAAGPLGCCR
SMILES	remaining activity
Cc1ccc(NC2=CC(=O)c3sc(C)nc3C2=O)cc1	100%
Oc1ccc(Nc2nc(-c3ccc(Cl)cc3)cs2)cc1	100%
Nc1ncnc2c1cnn2-c1ccccc1	87.1%
Fc1ccc(-c2nc3n(c2-c2ccncc2)CCS3)cc1	99%
COc1ccc(S(=O)(=O)N(CCO)c2ccccc2CN(C)CC=Cc2ccc(Cl)cc2)cc1	104%
Nc1nc(Nc2ccc(S(N)(=O)=O)cc2)nn1C(=O)c1c(F)cccc1F	85.9%
NC(=O)c1ccc(N(C(N)=O)c2c(F)cccc2F)nc1-c1ccc(F)cc1F	100%
CC[n+]1c(/C=C/N(C)c2ccccc2)n(-c2ccccc2)c2ccc(-c3nc4ccccc4s3)cc21	96.3%
COc1cc(Nc2c(C#N)cnc3cc(OCCCN4CCN(C)CC4)c(OC)cc23)c(Cl)cc1Cl	105%
O=C1Cc2c([nH]c3ccc([N+](=O)[O-])cc23)-c2ccccc2N1	99.6%
CC(C)(C)n1nc(Cc2cccc3ccccc23)c2c(N)ncnc21	91.9%
Nc1nccc(-c2c(-c3ccc(F)cc3)ncn2C2CCNCC2)n1	94.8%
CCc1[nH]c(-c2ccc(OC)cc2)nc1-c1ccncc1	98.9%
CCCC(=O)Oc1ccc2[nH]c(C(=O)c3cc4ccccc4[nH]3)cc2c1	84%
O=S(=O)(NCCNC/C=C/c1ccc(Br)cc1)c1cccc2cnccc12	92.7%
Cc1cc(Nc2nc(-c3ccccc3)nc3ccccc23)n[nH]1	92%
CC(=O)c1ccc(N2CCOCC2)cc1O	96.8%
N#CC(=C(N)Sc1ccc(N)cc1)c1ccccc1C(F)(F)F	112%
CSc1nc(-c2ccnc(N[C@@H](C)c3ccccc3)c2)c(-c2ccc(F)cc2)[nH]1 (racemic)	86.3%
Cc1cncc2cccc(S(=O)(=O)N3CCCN(C(=O)CN)C[C@@H]3C)c12	98.8%
CC#CC(=O)Nc1cc2c(Nc3ccc(F)c(Cl)c3)ncnc2cn1	98.9%
O=C1NC(=O)C(c2c[nH]c3ccccc23)=C1c1c[nH]c2ccccc12	95.1%

Study 3 — concentration: 5 µM
SMILES: O=C(Nc1cnn(-c2csc(C(=O)NC3COC3)c2)c1)Nc1ccccc1Cl
target	effect on	mode	technique	relative to	remaining activity
Receptor-interacting serine/threonine-protein kinase 3 (RIPK3, Homo sapiens, UniProt Q9Y572)	enzyme activity	inhibitor			101%
Tyrosine-protein kinase Lyn, isoform B (LYN, Homo sapiens, UniProt P07948)	enzyme activity			untreated control	94.7%
Tyrosine-protein kinase CSK (CSK, Homo sapiens, UniProt P41240)	enzyme activity			untreated control	98.3%
Protein kinase C theta type (PRKCQ, Homo sapiens, UniProt Q04759)	enzyme activity			untreated control	100%
Tyrosine-protein kinase TXK (TXK, Homo sapiens, UniProt P42681)	enzyme activity			untreated control	87.5%
Protein kinase C eta type (PRKCH, Homo sapiens, UniProt P24723)	enzyme activity			untreated control	100%
Serine/threonine-protein kinase PAK 2 (PAK2, Homo sapiens, UniProt Q13177)	enzyme activity			untreated control	86.2%
Serine/threonine-protein kinase NLK (NLK, Homo sapiens, UniProt Q9UBE8)	enzyme activity			untreated control	96.4%
Activated CDC42 kinase 1 (TNK2, Homo sapiens, UniProt Q07912)	enzyme activity			untreated control	85.4%
Protein kinase C epsilon type (PRKCE, Homo sapiens, UniProt Q02156)	enzyme activity			untreated control	98.3%
Serine/threonine-protein kinase A-Raf (ARAF, Homo sapiens, UniProt P10398)	enzyme activity			untreated control	91.9%
Serine/threonine-protein kinase WNK1 (WNK1, Homo sapiens, UniProt Q9H4A3)	enzyme activity			untreated control	97.4%
Homeodomain-interacting protein kinase 1 (HIPK1, Homo sapiens, UniProt Q86Z02)	enzyme activity			untreated control	92.8%
Serine/threonine-protein kinase WNK2 (WNK2, Homo sapiens, UniProt Q9Y3S1)	enzyme activity			untreated control	95.6%
Casein kinase II subunit alpha (CSNK2A1, Homo sapiens, UniProt P68400)	enzyme activity			untreated control	95.3% and 71.1%
Tyrosine-protein kinase ABL1 (ABL1, Homo sapiens, UniProt P00519)	enzyme activity			untreated control	82.4%
LIM domain kinase 2 (LIMK2, Homo sapiens, UniProt P53671)	enzyme activity			untreated control	96.2%
Serine/threonine-protein kinase 24 (STK24, Homo sapiens, UniProt Q9Y6E0)	enzyme activity			untreated control	110%
High affinity nerve growth factor receptor (NTRK1, Homo sapiens, UniProt P04629)	enzyme activity			untreated control	95.4%
Serine/threonine-protein kinase SIK1 (SIK1, Homo sapiens, UniProt P57059)	enzyme activity			untreated control	101%
Tau-tubulin kinase 2 (TTBK2, Homo sapiens, UniProt Q6IQ55)	enzyme activity			untreated control	106%
Serine/threonine-protein kinase Nek5 (NEK5, Homo sapiens, UniProt Q6P3R8)	enzyme activity	inhibitor			110%
Tyrosine-protein kinase Mer (MERTK, Homo sapiens, UniProt Q12866)	enzyme activity			untreated control	92.4%
cGMP-dependent protein kinase 1 (PRKG1, Homo sapiens, UniProt Q13976)	kinase activity		kinase panel profiling		110%
Serine/threonine-protein kinase ICK (CILK1, Homo sapiens, UniProt Q9UPZ9)	enzyme activity	inhibitor			110%

Study 4 — cell line: A-375; concentration: 100 µM; time: 18 h
Compound	viability
N=C(N)NC(=O)c1nc(Cl)c(N)nc1N	94.3% and 85.1%
CCCCCNC(=N)N/N=C/c1c[nH]c2ccc(OC)cc12	8.8%
OC[C@H]1O[C@@H](n2cnc3c(O)ncnc32)[C@H](O)[C@@H]1O	92.2% and 86.1%
CCOc1cc(N)c(Cl)cc1C(=O)NCC1CN(Cc2ccc(F)cc2)CCO1 (stereo not shown)	115%
CN(C)CC[C@@H](c1ccc(Cl)cc1)c1ccccn1	96.9%
Nc1ccn([C@@H]2CS[C@H](CO)O2)c(=O)n1	97.9%
C[N+]1(C)CCCC(OC(=O)C(O)(c2ccccc2)c2ccccc2)C1 (stereo not shown)	100%
COc1cc2c(cc1OC)CC(=O)N(CCCN(C)C[C@H]1Cc3cc(OC)c(OC)cc31)CC2	93.4%
Cc1ccc(NC(=O)c2ccc(CN3CCN(C)CC3)cc2)cc1Nc1nc(-c2cccnc2)cs1	12.3%
NC(=O)N1c2ccccc2CC(=O)c2ccccc21	79.9%
O=C(O)C1=CO[C@@H](O[C@@H]2O[C@H](CO)[C@@H](O)[C@H](O)[C@H]2O)[C@@H]2C(CO)=CC[C@H]12	92.6%
CC(C(O)c1ccc(O)cc1)N1CCC(Cc2ccccc2)CC1 (stereo not shown)	64.4%
COC(=O)Nc1nc2ccc(C(=O)c3ccccc3)cc2[nH]1	46.2%
C[C@@H](Oc1cc(-c2cnn(C3CCNCC3)c2)cnc1N)c1c(Cl)ccc(F)c1Cl	7.62%
NC(=O)NO	85.7%
CCN(CC)C(=S)SSC(=S)N(CC)CC	67.4%
C[C@H](CCC(=O)O)[C@H]1CC[C@H]2[C@@H]3[C@H](O)C[C@@H]4C[C@H](O)CC[C@]4(C)[C@H]3C[C@H](O)[C@]12C	84.1%
NC(=O)c1cccnc1	92.7%
CC(C)Oc1ccc2c(=O)c(-c3ccccc3)coc2c1	82.2%
